Assay results of several laboratories.
A part holds a random share of what one study measured. Substitutions count along the parent as printed.
UniProt Q9Y2X8, sequence (whole entry, looked up): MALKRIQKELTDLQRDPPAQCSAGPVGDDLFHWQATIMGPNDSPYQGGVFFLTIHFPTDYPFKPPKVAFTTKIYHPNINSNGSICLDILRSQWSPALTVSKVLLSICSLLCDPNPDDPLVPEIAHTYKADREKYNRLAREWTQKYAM

Set 1
Partner: ARF14 497-605 (Arabidopsis thaliana, UniProt Q9LQE8)
Method: two-hybrid
Reference: out of 4 tests
Reading: higher = firmer interaction
Quantity: positive tests
B1: ARF10 575-693 (Arabidopsis thaliana, UniProt Q9SKN5); chain LQGLETGHCKVFMESEDVGRTLDLSVIGSYQELYRKLAEMFHIEERSDLLTHVVYRDANGVIKRIGDEPFSDFMKATKRLTIKMDIGGDNVRKTWITGIRTGENGIDASTKTGPLSIFA
B2: IAA29 (Arabidopsis thaliana, UniProt Q93WC4); chain MELDLGLSLSPHKSSKLGFNFDLNKHCAIEGAASCLGTEKLRFEATFGLGNVEENCYMPKQRLFALNGQPNEEDEDPLESESSIVYDDEEENSEVVGWPPVKTCMIKYGSYHHRHIRNHHHCPYHHRGRRITAMNNNISNPTTATVGSSSSSSISSRSSMYVKVKMDGVAIARKVDIKLFNSYESLTNSLITMFTEYEDCDREDTNYTFTFQGKEGDWLLRGDVTWKIFAESVHRISIIRDRPCAYTRCLF
B3: ARF5 788-902 (Arabidopsis thaliana, UniProt P93024); chain ATPRVRTYTKVQKTGSVGRSIDVTSFKDYEELKSAIECMFGLEGLLTHPQSSGWKLVYVDYESDVLLVGDDPWEEFVGCVRCIRILSPTEVQQMSEEGMKLLNSAGINDLKTSVS
B4: ARF11 500-622 (Arabidopsis thaliana, UniProt Q9ZPY6); chain SPKEQKQQTSTRSRIKVQMQGTAVGRAVDLTLLRSYDELIKELEKMFEIEGELSPKDKWAIVFTDDEGDRMLVGDDPWNEFCKMAKKLFIYPSDEVKKMRSKSLLGDKGTIVNLESDQRTVHV
B5: ARF12 500-593 (Arabidopsis thaliana, UniProt Q9XID4); chain TEIQNKQFSSSRTCTKVQMQGVTIGRAVDLSVLNGYDQLILELEKLFDIKGQLQTRNQWEIAFTDSDEDKMLVGDDPWPEFCNMVKKIFIQKRR
B6: ARF7 1030-1164 (Arabidopsis thaliana, UniProt P93022); chain PAQTQRMRTYTKVQKRGSVGRSIDVNRYRGYDELRHDLARMFGIEGQLEDPQTSDWKLVYVDHENDILLVGDDPWEEFVNCVQSIKILSSAEVQQMSLDGNFAGVPVTNQACSGGDSGNAWRGHYDDNSATSFNR
B7: IAA33 (Arabidopsis thaliana, UniProt Q9FKM7); chain MNSFEPQSQDSLQRRFHQDNSTTQQPRDTTTPFIPKPASKNHNNSNSSSGAAGRSFQGFGLNVEDDLVSSVVPPVTVVLEGRSICQRISLDKHGSYQSLASALRQMFVDGADSTDDLDLSNAIPGHLIAYEDMENDLLLAGDLTWKDFVRVAKRIRILPVKGNTRQVKRNE
B8: ARF1 538-665 (Arabidopsis thaliana, UniProt Q8L7G0); chain SRQIRSCTKVHMQGSAVGRAIDLTRSECYEDLFKKLEEMFDIKGELLESTKKWQVVYTDDEDDMMMVGDDPWNEFCGMVRKIFIYTPEEVKKLSPKNKLAVNARMQLKADAEENGNTEGRSSSMAGSR
Residues (chain): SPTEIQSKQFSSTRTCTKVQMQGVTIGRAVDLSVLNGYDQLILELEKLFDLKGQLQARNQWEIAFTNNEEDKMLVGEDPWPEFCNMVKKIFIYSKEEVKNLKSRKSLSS
B1 (ARF10 575-693): 0
B2 (IAA29): 0
B3 (ARF5 788-902): 0
B4 (ARF11 500-622): 0
B5 (ARF12 500-593): 1
B6 (ARF7 1030-1164): 1
B7 (IAA33): 0
B8 (ARF1 538-665): 0

Set 2
Target: Sal-like protein 4, full length isoform B (SALL4, Homo sapiens, UniProt Q9UJQ4-2, residues 1-616)
Method: universal PBM
Form: double-stranded DNA, one strand shown
Matrix: in vitro
Concentration: not given
Notes: 8-mer, flanks averaged, mean of replicates
Reading: higher = stronger binding
Quantity: E-score
Residues (chain): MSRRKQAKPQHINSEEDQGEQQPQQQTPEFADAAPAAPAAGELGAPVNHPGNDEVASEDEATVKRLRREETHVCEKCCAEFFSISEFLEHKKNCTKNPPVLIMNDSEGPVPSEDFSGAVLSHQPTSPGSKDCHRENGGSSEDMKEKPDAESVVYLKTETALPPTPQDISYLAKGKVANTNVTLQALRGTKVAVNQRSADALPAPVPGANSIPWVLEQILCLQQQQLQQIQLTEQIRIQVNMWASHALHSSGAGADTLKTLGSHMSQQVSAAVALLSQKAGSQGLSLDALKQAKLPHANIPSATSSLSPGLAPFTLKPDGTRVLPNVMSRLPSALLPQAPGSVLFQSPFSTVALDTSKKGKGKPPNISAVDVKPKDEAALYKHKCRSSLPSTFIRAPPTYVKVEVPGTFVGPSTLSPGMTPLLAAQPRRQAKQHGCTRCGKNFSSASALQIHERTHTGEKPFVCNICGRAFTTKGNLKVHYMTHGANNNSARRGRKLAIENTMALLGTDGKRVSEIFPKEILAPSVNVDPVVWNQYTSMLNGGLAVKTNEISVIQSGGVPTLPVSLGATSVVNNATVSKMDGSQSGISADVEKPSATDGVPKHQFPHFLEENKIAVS
TGACCCAA: 0.0249
AATCGTGG: 0.133
AATCCTTG: 0.0392
AACAACGG: -0.0545
ATCCGGCG: -0.305
CTGAGTTA: 0.0267
AACTTCCC: -0.0932
CTCACAAA: 0.137

Other studies, line by line
Matrix: yeast
Reference: not given
B9: RBCK1 RING domain (UniProt Q9BYM8); chain SLVLNTEPAECPVCYSVLAPGEAVVLRECLHTFCRECLQGTIRNSQEAEVSCPFIDNTYSCSGKLLEREIK
P1: viral docking peptide; KGVKRKLFAEDSS; partner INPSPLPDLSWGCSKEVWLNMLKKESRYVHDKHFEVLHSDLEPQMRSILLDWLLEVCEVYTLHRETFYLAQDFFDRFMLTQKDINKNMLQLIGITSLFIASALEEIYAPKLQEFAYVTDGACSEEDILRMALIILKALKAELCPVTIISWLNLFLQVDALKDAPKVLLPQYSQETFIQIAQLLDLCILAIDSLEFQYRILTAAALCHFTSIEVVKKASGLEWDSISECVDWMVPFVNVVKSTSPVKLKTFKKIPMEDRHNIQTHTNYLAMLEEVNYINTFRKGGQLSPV
B9 (RBCK1 RING domain)  lacZ reporter activity (UBE2D4 UBC core domain (UniProt Q9Y2X8); yeast two-hybrid; mostly zero background; higher = stronger interaction): 0
P1 V3H  normalised enrichment score (CCNE2, cyclin fold, Cln2 fusion (human); yeast growth competition, sequencing; strong parent motif; higher = stronger binding): 3.94

Excerpt of the above (set 2):
CTGAGTTA: 0.0267
